Results collected from several papers.
Several values in a cell are separate wells, animals, samples, runs or records. ± marks the error that the study gave.

For `C=CC[C@@H]1/C=C(\C)C[C@H](C)C[C@H](OC)[C@H]2O[C@@](O)(C(=O)C(=O)N3CCCC[C@H]3C(=O)O[C@H](/C(C)=C/[C@@H]3CC[C@@H](O)[C@H](OC)C3)[C@H](C)[C@@H](O)CC1=O)[C@H](C)C[C@@H]2OC`, the plasma creatinine was 26 ± 2 µmol/L (male Wistar Kyoto rat; intraperitoneal, 0.5 mg/kg/day, day 18).
Under “participants with headache”, `C=CC(=O)NC1CCN(c2ncc3ncnc(Nc4ccc(Oc5ccc6c(c5)ncn6C)c(C)c4)c3n2)CC1` is recorded as 18.8% (human, male; oral, 240 mg, treatment-related adverse event).
`CCc1nc(C(N)=O)c(Nc2ccc(N3CCC(N4CCN(C)CC4)CC3)c(OC)c2)nc1NC1CCOCC1` — result for “accumulation ratio (AUC)”: 8.83 (Japanese patients, plasma; oral, 200 mg, cycle 1 day 28, multiple doses, median; relative to: single dose).
For `Cc1cc(Nc2cc3ncccc3c(N[C@@H]3C[C@H]4CC[C@@H](C3)N4CCC#N)n2)n[nH]1`, the AUC(0-24) was 126 ng·h/mL (human, plasma; 1000 mg single dose, mean).
`CC(C)(C(=O)N1CCOc2c(C#N)cncc2C1)C(F)F` — result for “subjects with adverse event”: 0% (item: eye disorders; human; oral, 10 mg once daily, 14 days, multiple ascending dose).
For `O=C(O)[C@H]1O[C@@H](Oc2ccc(/C=C\c3cc(O)cc(O)c3)cc2)[C@H](O)[C@@H](O)[C@@H]1O`, “samples above LOQ” read 100% (human, plasma).
`Cc1[nH]c2ccccc2c1CCNCc1ccc(/C=C/C(=O)NO)cc1` has a viability of 0.864% (OCI-Ly1; 0.1 µM, 120 h).
With `CN(C)[C@@H]1C(O)=C(C(N)=O)C(=O)[C@@]2(O)C(O)=C3C(=O)c4c(O)cccc4[C@@](C)(O)[C@H]3C[C@@H]12` the amount permeated was 1.18 nmol (starch gel membrane permeability; Gram-negative envelope surrogate; 200 µM, 20 min, pH 7.4).
Under “urinary calcium excretion change”, `Cc1ccc([C@@H]2O[C@H](CO)[C@@H](O)[C@H](O)[C@H]2O)cc1Cc1ccc(-c2ccc(F)cc2)s1` is recorded as 7.65 mg (Japanese type 2 diabetes patients; 25 mg, day 15, 24 h urine collection; relative to: baseline).
`NC(=O)c1cccc(N)c1` has a viability of 77% (OCI-Ly1; 1 µM, 120 h).
`NC1(C(=O)N[C@@H](CCO)c2ccc(Cl)cc2)CCN(c2nc[nH]c3nccc2-3)CC1`: “incidence of Leukopenia” 6.7% (metastatic CRPC patients; dose not given, any grade, treatment-related, all doses, together with: enzalutamide 160 mg daily).
`CCN1/C(=C/C(C)=O)Sc2ccc(F)cc21`: “diastolic blood pressure” 77 ± 2 mmHg (cynomolgus monkey; oral, 100 mg/kg, 4 h post-dose).
`CN1CCN(c2cccc3c2CCN(C(=O)/C=C/c2c(-n4cnnn4)ccc(Cl)c2F)[C@@H]3C(=O)Nc2ccc(C(=O)O)cc2)C(=O)C1`: “subjects with skin irritation” 12.5% (healthy human subjects; intravenous infusion, 20 mg/h, 5 days).
For `Cn1cncc1[C@@](N)(c1ccc(Cl)cc1)c1ccc2c(c1)c(-c1cccc(Cl)c1)cc(=O)n2C`, the accumulation index was 1.2 and 1.03 and 1.36 and 1.17 and 1.09 (human, plasma; oral, 300 mg/m^2; relative to: AUC(0-inf) over AUC(0-12h)).
For `CCCCC[C@H](O)CC[C@@H]1[C@H]2Cc3cccc(OCC(=O)O)c3C[C@H]2C[C@H]1O`, “geometric mean AUC(0-inf)” read 0.43 ng·h/mL (LC-MS/MS; Japanese PAH patients, plasma; inhaled, 54 µg, no background PAH therapy).
With `O=C(c1cccnc1-c1ccncc1)N1CCC(O)(Cc2ccccc2)CC1` the AUClast was 224 ng·h/mL (healthy Japanese adults, plasma; oral, 100 mg twice daily, day 7).
For `CCn1cc(C(=O)O)c(=O)c2ccc(C)nc21`, the amount permeated was 3.57 nmol (starch gel membrane permeability; Gram-negative envelope surrogate; 200 µM, 45 min, pH 7.4).
For `COc1ccc(CCC(=O)O)cc1O[C@@H]1O[C@H](C(=O)O)[C@@H](O)[C@H](O)[C@H]1O`, the plasma concentration was 304 nM (human plasma; median).
Under “drug-related nausea incidence”, `Cn1cc(Nc2nc(N)nc(-c3cccc(-n4ccc5cc(C6CC6)cc(F)c5c4=O)c3CO)n2)cn1` is recorded as 0% (healthy humans, fed; oral tablet, 50 mg twice daily (multiple dose), 14 (unit not given); relative to: subjects).
`Cn1c(=O)[nH]c(=O)c2[nH]cnc21` — result for “samples above LOQ”: 100% (human, both sexes, plasma).
`COc1cc2nccc(Oc3ccc(NC(=O)c4cc5c(n(-c6ccccc6)c4=O)CCCC5=O)nc3)c2cc1OC`: “grade ≥3 Hyperglycaemia patients” 0% (relapsed or refractory AML; oral, 6 mg once daily).

A few entries again:
For `CCn1cc(C(=O)O)c(=O)c2ccc(C)nc21`, the amount permeated was 3.57 nmol (starch gel membrane permeability; Gram-negative envelope surrogate; 200 µM, 45 min, pH 7.4).
